Experimental data gathered from unrelated publications.
A part holds a random share of what one study measured. “And” joins repeats or separate records; there may be more than shown.

Series 1 — observed: binding; technique: HTRF; concentration: 37.04 nM
Target: Membrane-associated tyrosine- and threonine-specific cdc2-inhibitory kinase (PKMYT1, Homo sapiens, UniProt Q99640)
Residues (Q99640 1-499): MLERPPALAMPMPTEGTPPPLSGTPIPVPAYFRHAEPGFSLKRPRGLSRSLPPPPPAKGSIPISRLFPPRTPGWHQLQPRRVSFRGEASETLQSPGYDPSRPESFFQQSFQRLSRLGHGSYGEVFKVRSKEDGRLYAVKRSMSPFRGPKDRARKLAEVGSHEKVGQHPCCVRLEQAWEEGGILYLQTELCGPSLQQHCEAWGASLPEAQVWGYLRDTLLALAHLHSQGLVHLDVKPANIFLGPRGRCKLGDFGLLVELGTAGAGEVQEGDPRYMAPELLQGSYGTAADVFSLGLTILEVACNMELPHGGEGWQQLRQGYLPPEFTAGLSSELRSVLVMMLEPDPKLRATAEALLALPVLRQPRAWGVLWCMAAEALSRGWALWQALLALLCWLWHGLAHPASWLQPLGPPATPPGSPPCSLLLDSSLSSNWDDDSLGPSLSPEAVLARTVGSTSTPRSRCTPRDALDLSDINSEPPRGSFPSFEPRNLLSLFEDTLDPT
`Cc1ccc(O)c(C)c1-c1cnc2[nH]c(-c3cnc(N4CCC(CN5CCN(c6ccc(C(=O)NC7CCC(=O)NC7=O)c(F)c6)CC5)CC4)nc3)cc2c1C#N` (racemic) gave an inhibition of 96.2% and 95.6%.
The inhibition of `Cc1ccc(O)c(C)c1-c1cnc2[nH]c(-c3cnc(N4CCC(CN5CCN(c6ccc7c8c(cccc68)C(=O)N7C6CCC(=O)NC6=O)CC5)CC4)nc3)cc2c1C#N` (racemic) is reported as 90.1% and 89.8%.
The inhibition of `Cc1ccc(O)c(C)c1-c1cnc2[nH]c(-c3cnc(N4CCC(CN5CCN(c6ccc(N7CCC(=O)NC7=O)cc6F)CC5)CC4)nc3)cc2c1C#N` is reported as 95.6% and 95.5%.

Series 2 — mode: competitor; technique: radioligand binding
Compound: N=C(N)NCCCCCCN1CCC23c4c5ccc(O)c4OC2c2nc4ccccc4cc2CC3(O)C1C5 (centres unmarked)
Target: Mu-type opioid receptor (OPRM1, Homo sapiens, UniProt P35372)
Chain of UniProt P35372 (whole entry, looked up): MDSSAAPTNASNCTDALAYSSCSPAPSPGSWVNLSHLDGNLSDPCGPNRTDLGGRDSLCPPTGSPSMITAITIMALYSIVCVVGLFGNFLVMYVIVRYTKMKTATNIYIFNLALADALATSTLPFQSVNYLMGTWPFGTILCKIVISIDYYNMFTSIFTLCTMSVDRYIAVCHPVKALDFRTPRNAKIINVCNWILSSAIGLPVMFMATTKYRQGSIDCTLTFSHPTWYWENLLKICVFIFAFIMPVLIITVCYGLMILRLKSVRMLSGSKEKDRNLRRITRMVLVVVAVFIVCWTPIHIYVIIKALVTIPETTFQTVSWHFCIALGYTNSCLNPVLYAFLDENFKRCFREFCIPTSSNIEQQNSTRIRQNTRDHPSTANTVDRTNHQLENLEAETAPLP
10 nM — “normalised specific binding”: 133% and 106% and 88.8%.
For 1 pM: “normalised specific binding” read 125% and 124% and 102%.
The “normalised specific binding” was 95.4% and 113% and 146% (1 nM).

Other studies, line by line
The Vz of `Cn1cc(-c2cccc(CN3CCC4(CC3)COc3c4ccc4c3CN([C@H]3CCC(=O)NC3=O)C4=O)c2)cn1` is reported as 11.4 L/kg and 15.6 L/kg and 14.3 L/kg (cynomolgus monkey; intravenous, 1 mg/kg).
For `COc1cc(C(=O)OCCCN2CCCN(CCCOC(=O)c3cc(OC)c(OC)c(OCc4ccc([N+](=O)[O-])cc4)c3)CC2)cc(OC)c1OC`, the plasma concentration was about 100 ng/mL (LC-MS/MS; CD-1 mouse, male, plasma; subcutaneous, 30 mg/kg).

Repeated from above (other studies, line by line):
For `COc1cc(C(=O)OCCCN2CCCN(CCCOC(=O)c3cc(OC)c(OC)c(OCc4ccc([N+](=O)[O-])cc4)c3)CC2)cc(OC)c1OC`, the plasma concentration was about 100 ng/mL (LC-MS/MS; CD-1 mouse, male, plasma; subcutaneous, 30 mg/kg).
